# Results collected from several papers.
# Every numbered part comes from another study and shows a few of its results, in no order.

# Sample 1
# Target: Fragile X messenger ribonucleoprotein 1, C-terminal low-complexity region (Fmr1, Mus musculus, UniProt P35922)
# Method: RNA Bind-n-Seq
# Molecule type: RNA
# Medium: in vitro
# Tested at: 200 nM
# Setting: whole 134-nt RNA, ends assumed
# With: 150 mM KCl
# Reference: input library
# Reading: higher = stronger binding
# Shared flanks, not repeated: GGGAGUUCUACAGUCCGACGAUC … UGGAAUUCUCGGGUGUCAAGG
Oligonucleotide,log2 enrichment
AGUCCUGUGCUACACAUCGUAUGUACCGAAUCGGUUUUUUUGGAAAAAAAGGAAAGGAAAGUAUUAUGUUACGCCGUUCGGAUCUGCACU,-1.26
CCUCAAGUCCUGUGCUACACAUCGUAUGUACCGAAUCGGGAGGGGAGGGAGGGAAAGUAUUAUGUUACGCCGUUCGGAUCUGCACUUCCA,1.39
UAACUUUAGAGGAGGAUCUGAUGGAUAUGGCAGUGGGCGUGGAUUUGGGGAUGGCUAUAAUGGGUAUGGAGGAGGACCUGGAGGUGGCAA,0.464
GCAGGAAGUAAAAACAAAUGGAAAUGCUUCGGAUAGUGGCAGGGGUGGGGGCUGCUAAGGAAAGGGUGGGAUGGGAGUGGGUAAAGAGUU,0.25
CCUGUGCUACACAUCGUAUGUACCGAAUCGGGUUUUUUUGGUUUUUUUGGGUUUUUUUGGAAAGUAUUAUGUUACGCCGUUCGGAUCUGC,-0.4
CACAGACAACACGCACCCACACAGACACAGAGGGAAGGGGUUGGGAUGGGGACAGGGUGCACAGCAGGGCGGGGUAGGACCCCAGCGCCU,1.12
GUCCUGUGCUACACAUCGUAUGUACCGAAUCGGGAAAGGGUUUUUUUGGGAAAAAGGGAAAGUAUUAUGUUACGCCGUUCGGAUCUGCAC,-0.376
UAACUUUAGAGGAGGAUCUGAUGGAUAUGGCAGUGGACGUGGAUUUGGGGAUGGCUAUAACGGGUAUGGAGGAGGACCUGGAGGUGGCAA,0.398
CCUCAAGUCCUGUGCUACACAUCGUAUGUACCGAAUCGGGUUGGUUGGUUGGAAAGUAUUAUGUUACGCCGUUCGGAUCUGCACUUCCAG,0.167
CACAGACAACACGCACCCACACAGACACAGAGGGAAGGGGUUGGGAUGGGGACAGGGUGCACAGCAGGGUGGGGUAGGACCCCAGCCCCU,1.26

# Sample 2
# Target: RNA binding protein fox-1 homolog 2, RRM domain, GST-SBP tag (RBFOX2, Homo sapiens, UniProt O43251-10, residues 100-194)
# Method: RNA Bind-n-Seq
# Molecule type: RNA
# Medium: in vitro
# Tested at: 365 nM
# Setting: natural RNA segment, single round, ends assumed
# Reference: no-protein control
# Reading: higher = stronger binding
# Shared flanks, not repeated: GGGAGUUCUACAGUCCGACGAUC … UGGAAUUCUCGGGUGCCAA
# Residues (chain): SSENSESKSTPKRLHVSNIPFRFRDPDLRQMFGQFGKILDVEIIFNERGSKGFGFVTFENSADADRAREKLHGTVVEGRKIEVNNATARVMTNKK
Oligonucleotide,RBNS enrichment (R)
ACGGUGCACCAGGUUGACUUGAAUAAAUUUGGCAACCAGGUUUGCAAGCGUGCAGAAACUAACUCCUCUCUCACAAAGGCUUAUAAAAUUGGUGUGUCCUAUGGAAAUGG,1.07
UGGUCAAUACAUUGCUUUCAUGUUUUAAAUUUAAGGAAAAAUUUUAUCUGAUAUUUUUCCAAAUUAAAUAAGUUAGAGAAUGCAAUCGGCGGAUGUGGGGGCGGCCAUCU,0.466
UUCCUUUUGAUGGGGAGAAAGGGCAAAUUAUUUUAAUAUUUUGUAUUUUCAACUUUAUAAAGAUAAAAUAUCCUCAGGGGUGGAGAAGUGUCGUUUUCAUAACUUGCUGA,0.469
UGUGACCAGCUCGACUGGCGGCCACUGGCUGUUCCCAUGAGUUCAGCUGUGACGUUAGCUUCAGUGGCUCCGCCGCAUCCUCACACUGACGGGGGCUCCAUACGGACCUG,0.323
CAAUAAUCAUAUCUCUUUUGACAUUUUGGAAAUUUUUUUAAUUUUACAAGUACAUUUAACAGAUCAUUUAUAAAGCAGGAGUCCAUUUUAACACUUACCGACUUUUUUUG,0.422
GAAGAGUUUACUUGGAUUGCAGUAGCCCAUUGGUUGUUCAUAUAUUUAAAUAAAAUGGUCUACAAACUAUUUUUCAAACAAUAAGGACUAUCUUGGGAUAUCUGAGCUGC,0.337
CAUCUCGCUGCAUCCCCCGAGAGUACACCGGUUGCUCUAGCCACCUGCGGCCCGCCCAUCUGCGCUAGCUGGCCUUCACGCUCUUGAUCGUCUUUCCUUUGUAUUGGAGA,1.36
GGACACGUGUAGUGUGUUAAGAUGUGCUGAUGGAAACACUAUCUUCAAAACUAAAAAUCAGCCACAGUUGAAUGCUACAAAAGACAUUUAAAGAUUUUAUUUAAACUGUU,0.509
UUUUAAAAGAUGCAUAAUAGCUGAAUGUAUGCAUGACUUUGAAAGAAGUUAAAAUGGUGAUUUUUUUUCACCUCUUGUACAUUUUAAAACCAGGCCAAAUCUAUUUGCCA,0.543
GUAGACAAGUAAGGGCUUGAAAAUGAUACUGGCAAGAUACGAUUGGCUCUAGAUCUACAUUCUUCAAAAAAAAAAAUUGGCUUAACUGUUUCAUCUUUAAGUAGCAUUUU,0.848
GGACAGCUCAACCAUGUUGUCAUCUUACCACCAGAGGGCACAGCAGCCCUCUAAGGGUUUUCUCCUCCGGCAAUGGAUAAGGAGCCCAGCUAUGAAAGCUUUGCUUACUG,0.256
CCCAUUUGCCCCUGUCCAGACUGUUUCUUUUGGCUUAGACCAUAAUCCUCUGCUGCCCGGGGCAUUGGAGCCCCUGUGCUAGGAAGCUGUCAGUUUUGAGUAUCAUUGGC,0.4

# Sample 3
# Target: Interferon regulatory factor 7, full length, phosphomimetic (IRF7, Homo sapiens, UniProt Q92985, residues 1-503, S101K/S471D/S472D/S475D/S476D/S477D/S483D/S484D/S487D)
# Method: protein-binding microarray
# Molecule type: double-stranded DNA, one strand shown
# Medium: in vitro
# Tested at: 250 nM
# Setting: 60-bp whole probe
# With: salmon DNA 0.4 mg/ml
# Reference: random background probes
# Reading: higher = stronger binding
# Shared flanks, not repeated: GCCTAGCAC … GTCTTGATTCGCTTGACGCTGCTG
# Target sequence (chain): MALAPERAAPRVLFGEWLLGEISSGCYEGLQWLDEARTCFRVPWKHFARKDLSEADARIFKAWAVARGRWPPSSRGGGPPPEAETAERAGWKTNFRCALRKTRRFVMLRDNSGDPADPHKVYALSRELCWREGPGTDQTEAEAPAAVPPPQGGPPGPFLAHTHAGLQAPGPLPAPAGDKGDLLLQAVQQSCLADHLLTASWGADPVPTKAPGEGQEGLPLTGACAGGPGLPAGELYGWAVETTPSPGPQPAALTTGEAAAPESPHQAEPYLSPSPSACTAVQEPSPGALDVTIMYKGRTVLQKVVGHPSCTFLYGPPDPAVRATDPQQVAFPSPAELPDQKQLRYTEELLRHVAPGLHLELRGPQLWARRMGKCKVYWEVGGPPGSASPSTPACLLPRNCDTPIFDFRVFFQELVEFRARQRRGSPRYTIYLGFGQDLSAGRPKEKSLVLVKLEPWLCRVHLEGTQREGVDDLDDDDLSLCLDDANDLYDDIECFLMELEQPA
Oligonucleotide,log fluorescence [z-score]
TTAGGATTCGACTTTCGGTTAGTGCTA,4.89
TTAGGTTGCGGACTGGGTTAGTGCTAG,-0.243
TTAGGTATCGGACTGAGTTAGTGCTAG,0.272
GACGGCTTCCTTTTCCTGACGTGCTAG,-0.0286
TTAGGAATGGGACTGGGTTAGTGCTAG,0.00137
TTCTCAACCAGTTTTCTTTTCGTGCTA,1.67
TCATTTCTCTGCTACCCTACTGTGCTA,1.93
GACTGACTGGGTTTCGGGACGTGCTAG,2.05
TTAAGTCTCGGTTTCGGTTAGTGCTAG,11.9
GTAGAACTGAGTTTCGATTAGTGCTAG,7.53
TGAGGTATCGGGTATCGGTTAGTGCTA,1.12
TTAGGTTTCGGTTCCGGTCAGTGCTAG,12.1
TTAGGTATCGGGTTTCGGGTAGTGCTA,4.6
TCATATTTTTTTGTAATACTGTGCTAG,0.821
GCCGGTTTCGGACTGGGGACGTGCTAG,5.03
GACGGTATCCTTCTCTTGACGTGCTAG,0.106
TTATGACTGGACACTGGGTTAGTGCTA,0.00294
TTAGGTCTCTGTATCGGTTAGTGCTAG,0.672
GACGAACTGAGACTGCAGACGTGCTAG,-0.152
TTAGGTATCCTTATCCTTGAGTGCTAG,0.358
TTAGGCATCCTACTGCTTTAGTGCTAG,-0.53
GACGGACTGCTTCTTCTGACGTGCTAG,-0.445
GACAGACTGGGGACTGGGGACGTGCTA,-0.429
TTATTTTTTTTATTTATAAAGTGCTAG,1.21
TTAGGACTGGGGTTTAGGTTAGTGCTA,-0.572

# Sample 4
# Target: Hepatocyte nuclear factor 3-alpha (Foxa1, Mus musculus, UniProt P35582, residues 1-468, full length assumed)
# Method: EMSA with sequencing
# Molecule type: double-stranded DNA, one strand shown
# Medium: in vitro
# Tested at: 10 and 20 nM
# Setting: whole designed probe, mean of two concentrations, ends assumed
# Reference: negative control set to 0
# Reading: higher = stronger binding
# Shared flanks, not repeated: GTGAGCGGTGCCCATTGATGGGGAAC … TTTCACTGGGATCGTGGGGAC
# Residues (chain): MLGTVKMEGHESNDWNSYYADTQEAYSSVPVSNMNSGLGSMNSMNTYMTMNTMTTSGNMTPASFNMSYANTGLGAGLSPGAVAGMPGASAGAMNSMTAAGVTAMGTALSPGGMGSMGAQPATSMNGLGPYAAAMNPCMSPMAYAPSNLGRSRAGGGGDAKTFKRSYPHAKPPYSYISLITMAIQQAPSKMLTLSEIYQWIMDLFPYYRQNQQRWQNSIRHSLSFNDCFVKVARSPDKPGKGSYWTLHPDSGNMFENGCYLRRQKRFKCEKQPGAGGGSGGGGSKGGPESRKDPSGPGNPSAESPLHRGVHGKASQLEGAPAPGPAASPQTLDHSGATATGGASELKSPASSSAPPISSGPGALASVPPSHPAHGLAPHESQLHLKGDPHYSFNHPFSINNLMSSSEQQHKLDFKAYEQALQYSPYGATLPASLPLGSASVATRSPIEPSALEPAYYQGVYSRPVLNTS
Oligonucleotide,normalised bound fraction [ratio]
GATTTTTGGGGATTTTTGAAAATAGCCCTATGTCTTGGATATGAGTCACAAATTGCCCCCCCCCCCACCATTTCGTCATTTGTCTCCAAGCTCTGTTTACATTGGTGTTTGCCGTGCAGAAGTTTTTCTTTAATGTAATAAAATGTAGCCATCTTTTTTAAAATGACCTCTGGACTTCATGTGTTTGGAGTTT,0.361
ATCTTCCCCCTCTTCCTTGCCCCACCAGCTCACCTTCCCGGGTATATTGGAGATAGTATTTATTTTCAAGCCGGCATTCGTTAACCCTCTTCTGGCGCAAACTGCTGTTTGCTCTGGATGAATCATGGTCCTTTGGCGACGCCAGGCTCCGGGAGAGCAAAGCACCGTGTCAGGGCCATGATCCGGGGTGGCC,0.184
TCTTTCACTCAAGTGGTATATCCCACAGCCCTAAAGAAGCAAGGGAAATAAGAATTAGAACTAGACATCCCAGGAGACAAAGAATTCAACAAAGCAAACATTAACCAATCCCTTCACACTTCCTGCCTATTTACAGAAAATCTCTCTGGCTCAGGCCGGGCAGTGAGTTCATTTATTTCAACAAAATCAAAGA,0.364
GACACCATTTCGAACAAAACAAAACAGTTGCTCCCTTCCCTCTTGTTCCTCCCACTATTGCTGTCATTGCAAGCTCCTAGGAGCTGCCCTGTAAATTACATTGCAGTGGGCATGACTCAGGGAAGCAGCAGGCAGGGAGGAGGATGGGAAGCAAGAACCCAGCTGGGGCTAAGCAAGGTCCAGCTCATAATAT,-0.0274
AAGTCCAAGGTTCTTAGAGGCTTACTGAATGGCTTAGTCATCAACCTGTAGGCAATAATTAATGTGACTCCTACAATATCTCACTCCAACAAAGTCATTTAACTTTTGTGGGTGTTTGTATTAGCTAAGTAAAGGGCTTTTTGTTTTCTAACTTATCTTTGATCTTCTTGGTTGGGAGACCAAACAACATATA,0.163
TAAACCAAGGTTTAAACTATTTCCTAGTGTCAAAAATATAATGAATACATGTTGGATTATGTGACTGGTATTTAGCAAAAGGTGCACACATGTCTGTTTACTTTGGTGTTTCATGATTTTGACCTTTTAGGTGCTTCTTGTTAGTAATTGGTTGAAGAGGAGTTGTAGCCAATTTTAATGTTTGTAATTCATA,0.435

# Some of these lines once more (sample 1):
Oligonucleotide,log2 enrichment
CACAGACAACACGCACCCACACAGACACAGAGGGAAGGGGUUGGGAUGGGGACAGGGUGCACAGCAGGGUGGGGUAGGACCCCAGCCCCU,1.26
CCUGUGCUACACAUCGUAUGUACCGAAUCGGGUUUUUUUGGUUUUUUUGGGUUUUUUUGGAAAGUAUUAUGUUACGCCGUUCGGAUCUGC,-0.4
GUCCUGUGCUACACAUCGUAUGUACCGAAUCGGGAAAGGGUUUUUUUGGGAAAAAGGGAAAGUAUUAUGUUACGCCGUUCGGAUCUGCAC,-0.376
UAACUUUAGAGGAGGAUCUGAUGGAUAUGGCAGUGGGCGUGGAUUUGGGGAUGGCUAUAAUGGGUAUGGAGGAGGACCUGGAGGUGGCAA,0.464
GCAGGAAGUAAAAACAAAUGGAAAUGCUUCGGAUAGUGGCAGGGGUGGGGGCUGCUAAGGAAAGGGUGGGAUGGGAGUGGGUAAAGAGUU,0.25
CCUCAAGUCCUGUGCUACACAUCGUAUGUACCGAAUCGGGUUGGUUGGUUGGAAAGUAUUAUGUUACGCCGUUCGGAUCUGCACUUCCAG,0.167
